{"data": "Measured values pooled from the literature", "note": "Each numbered part is a random draw from the data of one study; scales do not carry over between parts. Changes are numbered by the printed parent chain."}
{"data": "Study 1", "target": "Interferon regulatory factor 5, full length, phosphomimetic (IRF5, Homo sapiens, UniProt Q13568-2, residues 1-514, K96S/S451D/S453D/S456D/S462D)", "technique": "protein-binding microarray", "form": "double-stranded DNA, one strand shown", "sample": "in vitro", "concentration": "250 nM", "setting": "60-bp whole probe", "added": "salmon DNA 0.4 mg/ml", "baseline": "random background probes", "direction": "higher = stronger binding", "constant ends, left off below": "GCCTAGCAC … GTCTTGATTCGCTTGACGCTGCTG"}
{"Sequence": "GACGTACTGCTTTTCCTGACGTGCTAG", "log fluorescence [z-score]": 0.00182}
{"Sequence": "CAAGTTTGCCTCCTTCAGTCAGTGCTA", "log fluorescence [z-score]": 0.0688}
{"Sequence": "GGCTCTCAGTGGGCTGCTGGGTGCTAG", "log fluorescence [z-score]": -0.61}
{"Sequence": "TTCGATCTCAGTCTCGATTAGTGCTAG", "log fluorescence [z-score]": 1.5}
{"Sequence": "GACGGTCTGGGTCTCGGGACGTGCTAG", "log fluorescence [z-score]": -0.753}
{"data": "Study 2", "target": "Histone acetyltransferase KAT6A, both winged helices, GST fusion (KAT6A, Homo sapiens, UniProt Q92794, residues 1-181)", "technique": "protein binding microarray", "form": "double-stranded DNA, one strand shown", "sample": "in vitro", "concentration": "not given", "setting": "8-mer, flanks averaged, mean of 2 arrays, mostly near background", "baseline": "not given", "direction": "higher = stronger binding", "Construct (chain)": "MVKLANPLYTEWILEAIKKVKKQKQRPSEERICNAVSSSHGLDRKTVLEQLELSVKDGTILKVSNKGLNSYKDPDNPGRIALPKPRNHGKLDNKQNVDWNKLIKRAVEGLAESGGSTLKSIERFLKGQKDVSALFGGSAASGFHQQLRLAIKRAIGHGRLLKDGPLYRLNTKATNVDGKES"}
{"Sequence": "CGGCAGTA", "E-score": 0.225}
{"Sequence": "AGTCACCG", "E-score": 0.18}
{"Sequence": "ATTGCTGG", "E-score": -0.123}
{"Sequence": "GTATCATA", "E-score": 0.0353}
{"data": "Study 3", "target": "CCNB2, cyclin fold, Cln2 fusion (human)", "technique": "yeast growth competition, sequencing", "sample": "yeast", "setting": "weak parent motif", "baseline": "not given", "direction": "higher = stronger binding", "starting sequence": "RBL2 docking peptide (human); STTRRRLFVENDS"}
{"Change": "STTRRRLFVENDP [S13P]", "normalised enrichment score": 0.547}
{"Change": "STTRRRCFVENDS [L7C]", "normalised enrichment score": 0.28}
{"Change": "STTSRRLFVENDS [R4S]", "normalised enrichment score": -0.393}
{"Change": "STFRRRLFVENDS [T3F]", "normalised enrichment score": 0.482}
{"data": "Mixed results"}
{"Molecule": "PhoQ, residues 284 288 289 292 302 303 NLALSC", "target": "PhoP, residues 12 14 15 18 19 LWHCS (Escherichia coli, UniProt P23836)", "test": "Sort-seq, refers to: YFP reporter", "test system": "E. coli", "conditions": "PhoQ-PhoP variant library, added: 10 µM Mg2+", "scale": "baseline: high Mg2+ state, higher = stronger signaling", "quantity": "fold induction", "value": 1.11}
{"note": "A few entries again (study 1):"}
{"Sequence": "TTCGATCTCAGTCTCGATTAGTGCTAG", "log fluorescence [z-score]": 1.5}
